Published values of several laboratories.
Lines come from different studies, so protocols differ.
Organism: Pseudomonas aeruginosa

| Molecule | assay | system | conditions | MIC |
| --- | --- | --- | --- | --- |
| CCc1cc(=O)c2c(O)c3ccoc3c(OC)c2o1 | broth microdilution | ATCC 15442 | 19 h, 35 °C | > 256 µg/mL |
| CC[C@H](C)[C@H](NC(=O)[C@H](Cc1c[nH]cn1)NC(=O)[C@H](Cc1c[nH]cn1)NC(=O)[C@H](Cc1ccccc1)NC(=O)[C@@H](N)Cc1ccccc1)C(=O)N[C@@H](Cc1ccccc1)C(=O)N[C@@H](CCCNC(=N)N)C(=O)NCC(=O)N[C@@H](CCCCN)C(=O)N[C@H](C(=O)N[C@@H](Cc1c[nH]cn1)C(=O)N[C@H](C(=O)NCC(=O)N[C@@H](CCCCN)C(=O)N[C@H](C(=O)N[C@H](C(=O)N[C@@H](Cc1c[nH]cn1)C(=O)N[C@@H](CCCNC(=N)N)C(=O)N[C@@H](CC(C)C)C(=O)N[C@H](C(=O)N[C@H](C(=O)NCC(N)=O)[C@@H](C)O)C(C)C)[C@@H](C)CC)[C@@H](C)O)C(C)C)C(C)C | broth microdilution | ATCC 10662 | 18 h, 37 °C | 25 µg/mL |
| CC1(C)S[C@@H]2[C@H](NC(=O)[C@H](N)c3ccccc3)C(=O)N2[C@H]1C(=O)O | – | – | – | > 367 µM |
| Polymyxin B | broth microdilution | PAO1, Mueller-Hinton broth | 18 h, 37 °C | 2 µg/mL |
| CC(C)C[C@H](NC(=O)CNC(=O)[C@H](C)NC(=O)c1ccc(S(=O)(=O)NC[C@H]2O[C@@H](C)[C@@H](O)[C@@H](O)[C@@H]2O)cc1)C(=O)N[C@@H](C)C(=O)N[C@H]1CCN(c2cc3c(cc2F)c(=O)c(C(=O)O)cn3C2CC2)C1 | broth microdilution | PA14, human plasma with P. aeruginosa supernatant | 50% plasma, 10% supernatant, preincubation under 10 min | 0.78 to 1.56 µM |
| CCc1cc(=O)c2c(OCC(O)CN3CCOCC3)c3ccoc3c(OC)c2o1 (stereo not drawn) | broth microdilution | ATCC 15442 | 19 h, 35 °C | > 256 µg/mL |
| CC(C)C[C@H](N)C(=O)N[C@@H](C)C(=O)N[C@H]1CCN(c2cc3c(cc2F)c(=O)c(C(=O)O)cn3C2CC2)C1 | broth microdilution | PA14 | preincubated in buffer | > 25 µM |
| O=C(Nc1ccc(Cl)c(C(F)(F)F)c1)c1ccccc1O | microbial growth, broth dilution | ATCC27853 | – | > 64 µg/mL |
| Cc1cc(C)n(C(N)=S)n1.Cc1ccc(C(C)C)cc1.[Cl][Ru][Cl] | broth microdilution | ATCC 25619 | 37 °C | > 1000 µg/mL |
| O=C(Nc1ccc(Cl)c(C(F)(F)F)c1)c1cc(Cl)ccc1O | microbial growth, broth dilution | ATCC27853 | – | > 64 µg/mL |
| CC(C)C[C@H](NC(=O)CNC(=O)[C@H](C)NC(=O)c1ccc(S(=O)(=O)NC[C@H]2O[C@@H](C)[C@@H](O)[C@@H](O)[C@@H]2O)cc1)C(=O)N[C@@H](C)C(=O)NC[C@@H]1CCN(c2cc3c(cc2F)c(=O)c(C(=O)O)cn3C2CC2)C1 | broth microdilution | PA14, human plasma with P. aeruginosa supernatant | 50% plasma, 10% supernatant, preincubation under 10 min | 3.13 to 6.25 µM |
| O=C(Nc1ccc(F)c(F)c1)c1cc(Cl)ccc1O | microbial growth, broth dilution | ATCC27853 | – | > 64 µg/mL |
| CC(C)C[C@H](NC(=O)CNC(=O)[C@H](C)NC(=O)c1ccc(S[C@@H]2O[C@H](CO)[C@H](O)[C@H](O)[C@H]2O)cc1)C(=O)N[C@@H](C)C(=O)N[C@H]1CCN(c2cc3c(cc2F)c(=O)c(C(=O)O)cn3C2CC2)C1 | broth microdilution | PA14, human plasma with P. aeruginosa supernatant | 50% plasma, 10% supernatant, preincubation under 10 min | 0.195 to 0.39 µM |
| O=C(Nc1ccccc1)c1ccccc1 | microbial growth, broth dilution | ATCC27853 | – | > 64 µg/mL |
| CCc1cc(=O)c2c(OCC(O)CN3CCC(C)CC3)c3ccoc3c(OC)c2o1 (stereo not drawn) | broth microdilution | ATCC 15442 | 19 h, 35 °C | > 256 µg/mL |
